# Measurements collected from several papers.
# Each line is one published result; not all experiments were run side by side. Values joined by “and” are separate records of one study, mostly repeats; a detail may differ. ± gives the spread as reported.
# AR: Androgen receptor (AR, Homo sapiens, UniProt P10275)
# Sequence of UniProt P10275 (whole entry, looked up): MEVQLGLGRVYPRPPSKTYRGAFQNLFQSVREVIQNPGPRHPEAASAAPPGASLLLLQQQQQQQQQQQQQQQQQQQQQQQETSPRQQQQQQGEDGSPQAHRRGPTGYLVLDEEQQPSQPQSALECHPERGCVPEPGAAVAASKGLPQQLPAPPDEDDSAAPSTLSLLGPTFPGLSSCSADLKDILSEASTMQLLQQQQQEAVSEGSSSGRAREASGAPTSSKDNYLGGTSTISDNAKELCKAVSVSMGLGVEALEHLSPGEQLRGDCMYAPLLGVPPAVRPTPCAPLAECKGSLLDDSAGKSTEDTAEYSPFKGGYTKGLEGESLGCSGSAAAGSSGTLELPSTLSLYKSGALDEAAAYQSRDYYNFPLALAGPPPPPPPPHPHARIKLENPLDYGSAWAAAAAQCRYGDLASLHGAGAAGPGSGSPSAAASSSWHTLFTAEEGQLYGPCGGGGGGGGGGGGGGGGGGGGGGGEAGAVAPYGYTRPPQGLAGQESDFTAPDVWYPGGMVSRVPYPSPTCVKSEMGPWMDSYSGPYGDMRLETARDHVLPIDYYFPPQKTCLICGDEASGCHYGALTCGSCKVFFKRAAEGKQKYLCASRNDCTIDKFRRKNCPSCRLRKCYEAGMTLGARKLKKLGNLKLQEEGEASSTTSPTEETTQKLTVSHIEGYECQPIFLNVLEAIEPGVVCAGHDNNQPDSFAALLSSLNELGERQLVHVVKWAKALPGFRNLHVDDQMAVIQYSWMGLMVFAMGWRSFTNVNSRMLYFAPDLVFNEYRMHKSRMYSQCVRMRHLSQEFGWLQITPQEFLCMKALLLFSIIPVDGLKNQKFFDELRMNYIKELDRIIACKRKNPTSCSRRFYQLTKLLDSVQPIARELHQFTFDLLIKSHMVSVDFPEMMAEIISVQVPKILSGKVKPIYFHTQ
# FGFR1: Fibroblast growth factor receptor 1 (FGFR1, Homo sapiens, UniProt P11362)
# Sequence of UniProt P06276 (whole entry, looked up): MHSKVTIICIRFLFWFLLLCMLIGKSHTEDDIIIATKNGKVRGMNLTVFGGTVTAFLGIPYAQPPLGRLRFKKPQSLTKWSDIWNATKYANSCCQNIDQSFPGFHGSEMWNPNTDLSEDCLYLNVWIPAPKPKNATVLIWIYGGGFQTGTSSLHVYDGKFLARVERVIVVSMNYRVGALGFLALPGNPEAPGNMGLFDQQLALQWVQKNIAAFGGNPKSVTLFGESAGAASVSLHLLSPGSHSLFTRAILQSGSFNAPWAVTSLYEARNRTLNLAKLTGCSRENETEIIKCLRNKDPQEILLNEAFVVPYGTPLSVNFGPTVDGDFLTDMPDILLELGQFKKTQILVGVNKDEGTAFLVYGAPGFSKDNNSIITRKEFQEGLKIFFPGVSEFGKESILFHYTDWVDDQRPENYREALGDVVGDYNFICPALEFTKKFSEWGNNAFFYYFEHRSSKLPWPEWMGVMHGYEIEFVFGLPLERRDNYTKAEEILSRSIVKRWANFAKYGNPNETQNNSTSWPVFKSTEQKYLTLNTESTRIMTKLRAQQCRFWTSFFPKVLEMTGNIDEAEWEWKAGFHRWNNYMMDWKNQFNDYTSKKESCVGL
# Sequence of UniProt P14618 (whole entry, looked up): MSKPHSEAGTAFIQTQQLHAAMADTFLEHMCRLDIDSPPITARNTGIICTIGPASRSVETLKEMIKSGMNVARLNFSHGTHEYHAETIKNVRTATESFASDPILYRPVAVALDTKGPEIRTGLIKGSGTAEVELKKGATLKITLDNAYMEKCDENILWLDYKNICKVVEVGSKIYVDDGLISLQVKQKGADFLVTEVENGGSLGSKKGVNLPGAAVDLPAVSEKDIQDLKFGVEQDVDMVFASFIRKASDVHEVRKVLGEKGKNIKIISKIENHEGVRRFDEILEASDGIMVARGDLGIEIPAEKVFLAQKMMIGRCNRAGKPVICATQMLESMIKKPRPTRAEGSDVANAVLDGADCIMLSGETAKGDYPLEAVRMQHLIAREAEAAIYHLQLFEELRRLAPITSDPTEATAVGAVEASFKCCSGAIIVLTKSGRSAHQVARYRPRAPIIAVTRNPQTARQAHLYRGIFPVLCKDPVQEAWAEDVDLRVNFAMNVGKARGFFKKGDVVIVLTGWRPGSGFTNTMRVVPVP
# Sequence of UniProt P11362 (whole entry, looked up): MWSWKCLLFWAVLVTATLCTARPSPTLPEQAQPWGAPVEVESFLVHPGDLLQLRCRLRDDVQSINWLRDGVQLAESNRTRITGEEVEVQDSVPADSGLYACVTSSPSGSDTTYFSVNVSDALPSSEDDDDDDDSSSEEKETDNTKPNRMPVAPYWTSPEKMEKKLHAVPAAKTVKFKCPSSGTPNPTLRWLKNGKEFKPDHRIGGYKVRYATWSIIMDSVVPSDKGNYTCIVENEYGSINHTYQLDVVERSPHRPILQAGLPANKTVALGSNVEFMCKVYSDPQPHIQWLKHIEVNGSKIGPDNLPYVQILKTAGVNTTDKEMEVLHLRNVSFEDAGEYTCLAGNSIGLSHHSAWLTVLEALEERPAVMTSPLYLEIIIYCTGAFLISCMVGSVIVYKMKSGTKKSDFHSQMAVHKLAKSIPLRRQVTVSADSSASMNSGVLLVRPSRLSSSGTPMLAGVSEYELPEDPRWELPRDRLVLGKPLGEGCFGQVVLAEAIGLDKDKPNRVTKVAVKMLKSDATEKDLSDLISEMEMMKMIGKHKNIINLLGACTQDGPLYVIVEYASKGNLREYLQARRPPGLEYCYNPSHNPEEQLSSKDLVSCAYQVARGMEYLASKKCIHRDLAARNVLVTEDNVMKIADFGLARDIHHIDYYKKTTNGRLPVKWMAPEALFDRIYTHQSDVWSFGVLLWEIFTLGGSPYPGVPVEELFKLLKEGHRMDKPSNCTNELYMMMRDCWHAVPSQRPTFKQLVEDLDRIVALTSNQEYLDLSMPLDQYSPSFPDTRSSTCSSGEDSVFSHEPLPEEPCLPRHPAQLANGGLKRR
# Sequence of UniProt A5GZW8 (whole entry, looked up): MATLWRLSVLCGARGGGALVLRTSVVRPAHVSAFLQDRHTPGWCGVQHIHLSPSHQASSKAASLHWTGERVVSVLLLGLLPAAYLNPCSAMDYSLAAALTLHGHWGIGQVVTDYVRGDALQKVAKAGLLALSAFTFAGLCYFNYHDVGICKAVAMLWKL
# Sequence of UniProt P81908 (whole entry, looked up): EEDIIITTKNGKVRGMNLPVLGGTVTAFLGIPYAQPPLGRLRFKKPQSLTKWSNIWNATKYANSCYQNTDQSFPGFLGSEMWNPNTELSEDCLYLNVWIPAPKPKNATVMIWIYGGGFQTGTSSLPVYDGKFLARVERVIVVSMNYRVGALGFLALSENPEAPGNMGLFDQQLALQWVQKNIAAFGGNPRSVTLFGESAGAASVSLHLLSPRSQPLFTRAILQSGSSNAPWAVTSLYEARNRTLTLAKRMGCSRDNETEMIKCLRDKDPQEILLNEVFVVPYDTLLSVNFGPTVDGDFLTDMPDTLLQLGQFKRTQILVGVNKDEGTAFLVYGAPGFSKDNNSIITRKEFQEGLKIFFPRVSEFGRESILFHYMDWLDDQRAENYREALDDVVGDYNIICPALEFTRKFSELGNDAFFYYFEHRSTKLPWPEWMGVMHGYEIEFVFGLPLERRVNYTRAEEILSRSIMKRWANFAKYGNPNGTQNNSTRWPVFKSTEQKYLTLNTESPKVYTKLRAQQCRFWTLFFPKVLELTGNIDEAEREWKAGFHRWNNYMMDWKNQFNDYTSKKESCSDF
# Sequence of UniProt P00942 (whole entry, unmodified, looked up): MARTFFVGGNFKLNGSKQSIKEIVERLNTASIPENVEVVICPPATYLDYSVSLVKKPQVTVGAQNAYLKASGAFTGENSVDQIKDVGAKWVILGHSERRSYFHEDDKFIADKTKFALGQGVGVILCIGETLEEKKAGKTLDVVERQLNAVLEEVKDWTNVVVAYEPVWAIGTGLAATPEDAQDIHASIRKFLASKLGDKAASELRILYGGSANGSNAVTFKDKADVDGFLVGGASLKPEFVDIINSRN
# Sequence of UniProt O43570 (whole entry, looked up): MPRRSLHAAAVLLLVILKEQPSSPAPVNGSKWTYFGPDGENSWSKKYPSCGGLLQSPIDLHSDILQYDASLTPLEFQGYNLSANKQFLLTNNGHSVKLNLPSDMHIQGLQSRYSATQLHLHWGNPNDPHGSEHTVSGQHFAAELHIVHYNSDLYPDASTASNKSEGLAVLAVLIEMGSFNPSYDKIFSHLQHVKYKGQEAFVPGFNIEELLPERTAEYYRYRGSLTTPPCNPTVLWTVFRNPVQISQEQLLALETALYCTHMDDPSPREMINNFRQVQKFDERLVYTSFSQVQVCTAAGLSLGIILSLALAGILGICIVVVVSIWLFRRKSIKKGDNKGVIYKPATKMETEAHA
# Sequence of UniProt Q15418 (whole entry, looked up): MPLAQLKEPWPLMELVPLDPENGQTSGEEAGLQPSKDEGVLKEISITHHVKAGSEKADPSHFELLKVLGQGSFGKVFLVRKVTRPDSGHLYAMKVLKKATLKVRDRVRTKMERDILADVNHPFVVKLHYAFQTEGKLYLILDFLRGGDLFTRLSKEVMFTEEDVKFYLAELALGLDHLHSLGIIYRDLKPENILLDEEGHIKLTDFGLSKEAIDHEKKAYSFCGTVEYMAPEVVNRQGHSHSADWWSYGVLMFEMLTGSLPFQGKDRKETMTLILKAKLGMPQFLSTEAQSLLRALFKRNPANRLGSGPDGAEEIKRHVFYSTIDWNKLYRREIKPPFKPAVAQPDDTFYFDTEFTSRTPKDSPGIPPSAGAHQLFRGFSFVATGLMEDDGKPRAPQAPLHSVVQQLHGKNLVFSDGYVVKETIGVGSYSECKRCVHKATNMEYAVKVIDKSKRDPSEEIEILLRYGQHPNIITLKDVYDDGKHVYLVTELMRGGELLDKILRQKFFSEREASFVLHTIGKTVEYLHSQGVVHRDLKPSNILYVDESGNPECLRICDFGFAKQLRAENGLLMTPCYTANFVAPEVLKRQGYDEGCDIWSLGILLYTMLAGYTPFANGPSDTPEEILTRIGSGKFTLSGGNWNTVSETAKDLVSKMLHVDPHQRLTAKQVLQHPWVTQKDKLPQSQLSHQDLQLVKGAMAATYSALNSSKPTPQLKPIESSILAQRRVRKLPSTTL
SMILES,target or system,assay,system,conditions,how to read,endpoint,result
COc1ccc(N2C(=O)N(c3c(C)cccc3Cl)Cc3cnc(Nc4ccc(C5CCN(C)CC5)cc4OC)nc32)nc1,"Tyrosine-protein kinase Fer (FER, Homo sapiens, UniProt P16591)",kinase activity,,0.5 µM,,inhibition,76%
Cc1onc(-c2c(Cl)cccc2Cl)c1C(=O)N[C@@H]1C(=O)N2[C@@H]1SC(C)(C)[C@@H]2C(=O)O,"Penicillin-binding protein 1A (pbpA, Streptococcus pneumoniae, UniProt Q8DR59)",inhibitor,,,,kinact/KI,12000 ± 990 M⁻¹ s⁻¹
O=C(Nc1cccnn1)N1CCC(=Cc2cccc(Oc3ccc(C(F)(F)F)cn3)c2)CC1,"Serine/threonine-protein kinase 17A (STK17A, Homo sapiens, UniProt Q9UEE5)","kinase activity, inhibitor",,"50 µM, human",,inhibition,12%
O=C1CN(C(=O)CCn2ccnc2)CC(O)CN1CCc1ccccc1 (centres unmarked),"Cholinesterase (BCHE, Homo sapiens, UniProt P06276)",inhibitor,,0.25 µM,,apparent Vmax,0.35 ± 0.01 µM/min
O=C(Nc1ccccc1)OCC(CN1CCCCC1)OC(=O)Nc1ccccc1 (centres unmarked),"Cholinesterase (BCHE, Homo sapiens, UniProt P06276)",,,"concentration not given, Triton",,efficacy,-90.5 ± 5.68%
CN(N=O)c1ccc(O)c(O)c1,"Protein-glutamine gamma-glutamyltransferase (TGM2, Homo sapiens, UniProt P21980)","transglutaminase activity, inhibitor",,together with: 0.02% Triton X-100,relative to: with over without Triton X-100,IC50 fold increase,1.3 to 2.5 fold
O=C(O)COP(=O)(O)O,"TPI1 (Saccharomyces cerevisiae, UniProt P00942, Y208F)","enzyme activity, competitive inhibitor, GPDH/NADH-coupled",,"pH 8.3, 25 °C, ionic strength 0.1 NaCl, together with: glyceraldehyde 3-phosphate substrate",relative to: mutant over wild type,Ki ratio,60
CC[C@H](CO)Nc1nc(NCc2ccc(-c3ccccn3)cc2)c2ncn(C(C)C)c2n1,"Dual specificity protein kinase CLK1 (CLK1, Homo sapiens, UniProt P49759)",KINOMEscan competition binding,,"10 µM, primary screen",direction not given,binding score,5.1
COc1cc(N)c(Cl)cc1C(=O)NC1CN2CCC1CC2 (centres unmarked),"G-protein coupled receptor family C group 6 member A (GPRC6A, Homo sapiens, UniProt Q5T6X5)","β-arrestin recruitment, TANGO luminescence, refers to: GPRC6A",,concentration not given,relative to: basal luminescence,log2 fold change,0.221
Cc1[nH]c(C)c(S(=O)(=O)Nc2ccc(S(F)(F)(F)(F)F)cc2)c1C(=O)N(C)C,"D(3) dopamine receptor (DRD3, Homo sapiens, UniProt P35462)","β-arrestin recruitment, agonist, PathHunter",,,relative to: dopamine,Imax,92 ± 1%
Clc1ccc(-c2ccccc2Cl)cc1,AR,"reporter gene, antagonist",,"24 h, together with: DHT 2 nM",,IC25,40 nM
COc1ncccc1-c1cnn2ccc(N3CCN(C(=O)OC(C)C)CC3)nc12,"Ribosomal protein S6 kinase alpha-1, N-terminal kinase domain (RPS6KA1, Homo sapiens, UniProt Q15418)",KINOMEscan binding,,1 µM,relative to: untreated control,remaining binding,100%
CC(C)(C)[C@]1(O)CCN2C[C@H]3c4ccccc4CCc4cccc(c43)[C@@H]2C1,Plasmodium falciparum,,W2,,,IC50,2000 nM
CC(=O)O[C@H]1C[C@@H]2CC[C@@H]3[C@H](CC[C@@]4(C)[C@H]3C[C@H]([N+]3(C)CCCCC3)[C@@H]4OC(C)=O)[C@@]2(C)C[C@@H]1N1CCCCC1,"Cholinesterase (BCHE, Homo sapiens, UniProt P06276)",,,"concentration not given, Triton",,efficacy,-98.4 ± 12.6%
CC(CN1c2ccccc2Sc2ccccc21)N(C)C (centres unmarked),Plasmodium falciparum,,D10,,,IC50,12600 nM
CN1CCN(c2cc(-c3ccncc3)c(-c3ccc4ccccc4c3)nn2)CC1,"Neuropeptides B/W receptor type 1 (NPBWR1, Homo sapiens, UniProt P48145)","agonist, FLIPR",,12.5 µM,,activation,-0.4%
Nc1nc2c(ncn2[C@@H]2O[C@H](COP(=O)(O)OP(=O)(O)O[C@H]3O[C@H](CCO)C(=O)[C@@H](O)[C@@H]3O)[C@@H](O)[C@H]2O)c(=O)[nH]1,"C4-reductase HS:23, Campylobacter jejuni",substrate,,"pH 7.5, 25 °C, substrate formed in situ, together with: C3-epimerase excess, NADPH 300 µM",,Km,22 ± 8 µM
Nc1ncnc2c1ncn2[C@@H]1O[C@H](COP(=O)(O)OP(=O)(O)NP(=O)(O)O)[C@@H](O)[C@H]1O,"Cell cycle histidine kinase CckA, cytoplasmic region (Caulobacter vibrioides, UniProt Q9X688)",ITC,,together with: c-di-GMP 100 µM,,ΔS,10.6 cal/mol/K
Cc1cn([C@H]2C[C@H](O)[C@@H](COP(=O)(O)OP(=O)(O)OP(=O)(O)O)O2)c(=O)[nH]c1=O,"Gag-Pol polyprotein, reverse transcriptase (gag-pol, Human immunodeficiency virus type 1 group M subtype B, UniProt P04585, K653R)","nucleotide misincorporation, steady-state kinetics",,"K66R RT, together with: matched template/primer, template T",,kcat,0.21 ± 0.0297 s⁻¹
CC(=O)N[C@@H](CS)C(=O)N[C@@H](CCCNC(=N)N)C(=O)N[C@@H](CCCCN)C(=O)N[C@@H](CCCNC(=N)N)C(=O)N[C@@H](CC(N)=O)C(=O)N[C@@H](CCCNC(=N)N)C(=O)N[C@@H](CO)C(=O)N1CCC[C@H]1C(=O)N[C@@H](CCC(=O)O)C(=O)N[C@@H](CCCNC(=N)N)C(N)=O,"WD repeat-containing protein 5 (WDR5, Homo sapiens, UniProt P61964)","binding, competitor of LANA peptide, ITC",,"pH 7.0, 20 °C, WIN motif peptide",,ΔG,-6.8 kcal/mol
Nc1ncc(-c2nc(N3CCOCC3)nc(N3CCOCC3)n2)c(C(F)F)n1,"Mitotic checkpoint serine/threonine-protein kinase BUB1 (BUB1, Homo sapiens, UniProt O43683)",KINOMEscan,,10 µM,,remaining binding,99%
CC1=C(C)C(=O)C(C)=C(C)C1=O,"Reaction center protein M chain, QA site (pufM, Cereibacter sphaeroides, UniProt P0C0Y9)",charge recombination,"Rhodobacter sphaeroides, LDAO detergent solution","pH 7.8, 298 K, quinone reconstituted in QA site",,P+QA− recombination rate,10 s⁻¹
CCOC(=O)COc1ccc2c(=O)c3ccccc3oc2c1,"Acetylcholinesterase (ache, Electrophorus electricus, UniProt O42275)","enzyme activity, inhibitor, Lineweaver-Burk plot",,3.36 µM,higher = faster reaction,Vmax,0.0046 a.u.
O=C(Nc1cnccc1Cl)N1CCN(Cc2ccc3c(c2)OC(F)(F)O3)CC1,FGFR1,"kinase activity, inhibitor",,"10 µM, human, together with: poly(Glu:Tyr) substrate",,inhibition,3%
O=C1[O][Pt]2([NH][C@@H]3CCCC[C@H]3[NH]2)[O]C1=O,"Neuronal acetylcholine receptor subunit alpha-7 (Chrna7, Rattus norvegicus, UniProt Q05941)",inhibitor,,together with: acetylcholine 30 µM,,Hill coefficient,2.4 ± 0.2
CCN(CC)C(=O)Oc1ccc(CCC(=O)N2CCC(Cc3ccccc3)CC2)cc1OC,"Cholinesterase (BCHE, Equus caballus, UniProt P81908)",Ellman,equine serum BuChE,,relative to: AChE IC50 over BuChE IC50,selectivity ratio,3.3
C=C(CN(C(=O)c1c(C(F)F)nn(C)c1F)C1CC1)c1ccc(Cl)cc1Cl,"SDHD/SDHC/SDHB (Sus scrofa, UniProt A5GZW8+D0VWV4+Q007T0)","enzyme activity, inhibitor, DCIP reduction",pig,"0.06 µM, together with: DCIP 5 µM",,reaction velocity,0.00269 µM/s
CN(C(=O)n1cnc(-c2ccc[n+]([O-])c2)c1)C1CCCCC1,"glycine transporter, rat",binding,,"50 µM, together with: [3H]glycine",,inhibition,-1%
O=C(O)c1cccc(N(Cc2cccnc2)c2ccc(OC(F)F)c(OC(F)F)c2)c1,"Fatty acid-binding protein, heart (Homo sapiens, UniProt P05413)","binding, affinity selection mass spectrometry",,"100 nM, pooled screen",relative to: other proteins,fold change,22.9
C[C@H]1CN(c2n[nH]c3nc(N[C@H]4CC[C@H](NS(=O)(=O)CCC(F)(F)F)CC4)ncc23)CCO1,"MICOS complex subunit MIC60 (Homo sapiens, UniProt Q16891)","Kinobeads competition, refers to: IMMT",,"0.16 µM, unit not given",relative to: vehicle,remaining binding,0.95
[2H]c1c([2H])c([C@]2([2H])CCCN2C(=O)C(C)(C)Oc2ccc3cn[nH]c3c2)c([2H])c([2H])c1C([2H])([2H])[2H],FGFR1,KINOMEscan,,1 µM,relative to: DMSO control,remaining binding,80%
Clc1ccc(-c2cc(Cl)ccc2Cl)cc1,AR,"reporter gene, antagonist",,"24 h, together with: DHT 2 nM",,IC25,3100 nM
O=C1C(P(=O)(O)O)CC(O)N1O (centres unmarked),"Gamma-enolase (ENO2, Homo sapiens, UniProt P09104)",recombinant protein,,"1 µM, protein 9 nM",,thermal shift,~12 °C
O=C1NC(=O)[C@](CNC(=O)c2cnn(-c3ccccc3)n2)(C2CC2)N1,"Coagulation factor X (F10, Homo sapiens, UniProt P00742)",inhibitor,,concentration not given,,activity,inactive
N#C[Se]CCCCOc1ccc2c(-c3ccccc3)cc(=O)oc2c1,"Carbonic anhydrase 12 (CA12, Homo sapiens, UniProt O43570)",stopped-flow CO2 hydration,,,relative to: Ki CA II over Ki CA XII,selectivity ratio,> 338
O=C(c1ccc(Cl)cc1)N1CCN2C(=O)N(OC(=O)N3CCOc4ccccc43)C(=O)C2C1 (centres unmarked),"Pyruvate kinase PKM (PKM, Homo sapiens, UniProt P14618)",MS-based ABPP,SW-620 conditioned medium,"10 µM, 1 h, 37 °C","relative to: compound over DMSO, lower = more inhibition",peptide ratio,1.44 and 1.32 and 1.51 and 1.33
Oc1ccc(/C=C/c2cc(O)cc(O)c2)cc1,"O-methyltransferase (Sorghum bicolor, UniProt A0A1B6PFV1, W279A)",isothermal titration calorimetry,,apo protein,,∆G,-6.12 kcal/mol
NS(=O)(=O)C(F)(F)F,"Carbonic anhydrase 1 (CA1, Homo sapiens, UniProt P00915)","urea denaturation shift, Trp fluorescence",,"5 µM, pH 6.0",,binding free energy,-9.26 kcal/mol
Oc1ccc(Cl)cc1Sc1cc(Cl)ccc1O,"Cholinesterase (BCHE, Homo sapiens, UniProt P06276)",,biochemical,concentration not given,,activity class,inactive
COc1cc(Nc2ncc(F)c(Nc3ccc4c(n3)NC(=O)C(C)(C)O4)n2)cc(OC)c1OC,"Mitogen-activated protein kinase kinase kinase 13 (MAP3K13, Homo sapiens, UniProt O43283)",KINOMEscan,,"10 µM, LZK",,inhibition,22%
CC[C@H](C)[C@H]1O[C@]2(C=C[C@@H]1C)C[C@@H]1C[C@@H](C/C=C(\C)[C@@H](O[C@H]3C[C@H](OC)[C@@H](O[C@H]4C[C@H](OC)[C@@H](O)[C@H](C)O4)[C@H](C)O3)[C@@H](C)/C=C/C=C3\CO[C@@H]4[C@H](O)C(C)=C[C@@H](C(=O)O1)[C@]34O)O2,"GABA-A receptor; alpha-1/beta-2/gamma-2 (Rattus norvegicus, UniProt P18508+P62813+P63138)","chloride current, agonist, whole-cell patch clamp",HEK293 expressing GABAA,30 s,relative to: maximum,maximal response,45%

# Some of these lines once more:
SMILES,target or system,assay,system,conditions,how to read,endpoint,result
O=C1NC(=O)[C@](CNC(=O)c2cnn(-c3ccccc3)n2)(C2CC2)N1,"Coagulation factor X (F10, Homo sapiens, UniProt P00742)",inhibitor,,concentration not given,,activity,inactive
N#C[Se]CCCCOc1ccc2c(-c3ccccc3)cc(=O)oc2c1,"Carbonic anhydrase 12 (CA12, Homo sapiens, UniProt O43570)",stopped-flow CO2 hydration,,,relative to: Ki CA II over Ki CA XII,selectivity ratio,> 338
